Measured values gathered from unrelated publications.
Compare with care: the assays were run in different laboratories. Values joined by “and” are separate records of one study, mostly repeats; a detail may differ. ± gives the spread as reported.

`CC[C@H](C)[C@H](NC(=O)[C@@H](NC(=O)[C@H](CCCCN)NC(=O)[C@@H](NC(=O)[C@@H]1CCCN1[C@@H]1CN(C(=O)[C@@H](NC(=O)[C@@H](NC(=O)[C@@H](NC(=O)[C@@H](NC(=O)[C@@H](NC(=O)[C@@H](N)CCCCN)C(C)C)C(C)C)C(C)C)[C@@H](C)CC)[C@@H](C)O)CC[C@H]1NS(=O)(=O)c1ccc(C)cc1)[C@@H](C)O)C(C)C)C(=O)N[C@@H](CC(C)C)C(=O)N[C@@H](Cc1c[nH]cn1)C(N)=O` — result for “random coil content”: 58.5% (CD spectroscopy; 20 mM phosphate buffer; 125 µM, 20 °C).
`Cc1cc(C)n(CCN(CCN)CCCCCCNC(=O)[C@@H](N)Cc2c[nH]cn2)n1.[99Tc+].[C-]#[O+].[C-]#[O+].[C-]#[O+]` has a tissue uptake of 0.15 ± 0.03 %IA/g (BALB/c nude mice, MCF7 xenograft, bone; intravenous, 4 h).
`COc1ccc2c(c1)CCn1c[n+]3c(c1-2)-c1ccc(OC)cc1CC3`: “red cell distribution width” 15.2 ± 0.57% (female NSG mice, blood; 6 mg/kg, day 7, 5 days per week).
`C=CC(=O)Nc1cc(Nc2nccc(-c3c[nH]c4ccccc34)n2)c(OC)cc1N(C)CCN(C)C` gave a recovery of 82.6% (storage stability; human dried blood spots; 24 h, -80 °C, LLOQ level).
The tracer uptake of `CN(Cc1ccccc1)C(=O)CN1CCN(CC(=O)[O-])CCN(CC(=O)N(C)Cc2ccccc2)CC1.[44Sc+3]` is reported as 9.75 %ID/g (mouse, liver; intravenous, 1 h).
`O=C1C2CC3CC1CC(C(=O)N1CCN(c4ccc([N+](=O)[O-])c5ncccc45)CC1)(C3)C2` has a CL/F of 2650 mL/min/kg (male ICR mouse, plasma; oral, 5 mg/kg).
`CCC(CC)CNC(=N)NC(=N)NCCCCCCNC(=N)NC(=N)NCC(CC)CC` gave a microsomal CLint of 37.9 µL/min/mg (metabolic stability; rat, liver microsomes; 2 µM).
`Cc1cc(-c2ccc(C(=O)[C@@H]3CCCC[C@H]3C(=O)Nc3cnn4c3C(=O)NCC4)cc2)[nH]n1`: “cumulative radioactivity recovery” 73.4% and 84.8% and 80.8% and 65.2% (human, faeces; oral, 200 mg, 0-120 h; relative to: dose).
The tracer uptake of `CN(Cc1ccccc1)C(=O)CN1CCN(CC(=O)[O-])CCN(CC(=O)[O-])CC1.[18F-].[Sc+3]` is reported as 0.11 %ID/g (mouse, heart; intravenous, 1 h).
For `O=C(Nc1cnccc1-c1ccc([18F])cc1)c1ccnc(NC(=O)C2CC2)c1`, the SUV was 0.42 (FVB/NJ mouse, both sexes, brain; intravenous, 20 min, together with: tariquidar 15 mg/kg iv).
`CC[C@H](C)[C@@H](C(=O)N[C@@H](CC(C)C)C(=O)N[C@@H](CO)C(=O)N[C@@H](CO)C(=O)N[C@H](C(=O)N[C@@H](CCC(=O)O)C(=O)N[C@H](C(=O)NCC(=O)N[C@@H](CO)C(=O)N[C@@H](CC(N)=O)C(=O)N[C@H](C(=O)N1C[C@H](O)C[C@H]1C(N)=O)[C@@H](C)O)C(C)C)[C@@H](C)O)N(C)C(=O)[C@H](C)NC(=O)CN(C)C(=O)[C@H](Cc1ccccc1)NC(=O)[C@H](CO)NC(=O)[C@H](CO)NC(=O)[C@H](CCCNC(=N)N)NC(=O)[C@H](CCC(N)=O)NC(=O)[C@H](CC(C)C)NC(=O)[C@H](Cc1ccccc1)NC(=O)[C@H](Cc1c[nH]cn1)NC(=O)[C@H](C)NC(=O)[C@H](CC(C)C)NC(=O)[C@H](CCCNC(=N)N)NC(=O)[C@H](CCC(=O)O)NC(=O)[C@@H](NC(=O)[C@H](C)NC(=O)[C@@H]1CCCNC(=O)C[C@H](NC(=O)[C@H](CCCNC(=N)N)NC(=O)CC[C@H](NC(=O)CCCCCCCCCCCCCCCCCCC(=O)O)C(=O)O)C(=O)NCC(=O)N[C@@H]([C@@H](C)O)C(=O)N[C@@H](C)C(=O)N[C@@H]([C@@H](C)O)C(=O)N1)[C@@H](C)O` — result for “main peak area remaining”: 98% (RP-HPLC; water; 1.0 mg/mL, 7 days, pH 6.0, 40 °C).
The AUC(0-80 min) of `N=C(N)NCCC[C@@H]1NC(=O)[C@H](CO)NC(=O)[C@@H](NC(=O)[C@H](CO)NC(=O)[C@H](CO)NC(=O)[C@H](Cc2c[nH]c3ccccc23)NC(=O)CNC(=O)[C@H](CO)NC(=O)[C@@H](N)Cc2c[nH]c3ccccc23)CSSC[C@@H](C(=O)NCC(=O)O)NC(=O)[C@H](CO)NC1=O` is reported as 854 ng·h/mL (patients, plasma; intravenous, 10 mg/kg, thrice weekly, geometric mean).
The tumour-to-muscle ratio of `COc1cccc(OC)c1-c1cc(C(=O)NC2(C(=O)O)C3CC4CC(C3)CC2C4)nn1-c1ccc(C(=O)N(C)CCOCCN(C)C(=O)[C@H](CCCCNC(=O)[C@H](CC(C)C)NC(=O)C2OC2C(=O)O)NC(=O)CN2CCN(CC(=O)[O-])CCN(CC(=O)[O-])CCN(CC(=O)[O-])CC2)cc1C(C)C.[177Lu+3]` (mixture of isomers) is reported as 4.59 (mouse, HT-29 xenograft; 24 h post injection, biodistribution; relative to: tumour over muscle uptake).
`O=C(Nc1cnccc1-c1ccc([18F])nc1)c1ccnc(NC(=O)C2CC2)c1` gave an SUV of 0.153 (PET imaging; FVB/NJ mice, both sexes, brain; intravenous, 30 min post-injection, P-gp inhibited, together with: tariquidar 15 mg/kg iv, 2 h before).
With `CC(=O)N([O-])CCCCCNC(=O)CCC(=O)N([O-])CCCCCNC(=O)CCC(=O)N([O-])CCCCCN.[89Zr+4]` the intact complex was 97.4 ± 0.9% (radio-TLC; aqueous buffer; 3 d, pH 5, 37 °C, 89Zr-labelled complex, together with: DTPA 100-fold excess).
With `N#C[C@@H]1CCCN1C(=O)CNC(=O)c1ccnc2ccc(OCCCN3CCN(C(=O)CCc4ccc5c(c4)CN4CCN(Cc6cc(CCC(=O)O)ccc6O)CC(=O)[O][Al-]([18F])([O]C(=O)C4)[O]5)CC3)cc12` (some centres unmarked) the tumour-to-organ ratio was 15.5 ± 6.1 (BALB/c nude mice, U-87 MG tumour; 120 min post-injection; relative to: tumour over muscle).
`COc1cccc(OC)c1-c1cc(C(=O)NC2(C(=O)O)C3CC4CC(C3)CC2C4)nn1-c1ccc(C(=O)NCCNC(=O)[C@H](CCCCNC(=O)[C@H](CC(C)C)NC(=O)C2OC2C(=O)O)NC(=O)CN2CCN(CC(=O)[O-])CCN(CC(=O)[O-])CCN(CC(=O)[O-])CC2)cc1C(C)C.[177Lu+3]` (mixture of isomers) gave a tumour-to-muscle ratio of 52.9 (mouse, HT-29 xenograft; 24 h post injection, biodistribution; relative to: tumour over muscle uptake).
With `N#C[C@@H]1CCCN1C(=O)CNC(=O)c1ccnc2ccc(OCCCN3CCN(C(=O)CCc4ccc(O)c(CN5CCN6CC(=O)[O][Al-]([18F])([O]C(=O)C5)[O]c5ccc(CCC(=O)N7CCN(CCCOc8ccc9nccc(C(=O)NCC(=O)N%10CCC[C@H]%10C#N)c9c8)CC7)cc5C6)c4)CC3)cc12` (some centres unmarked) the tumour-to-organ ratio was 10.8 ± 1.34 (BALB/c nude mice, U-87 MG tumour; 120 min post-injection; relative to: tumour over liver).
Under “elimination rate constant”, `COC1C=COC2(C)Oc3c(C)c(O)c4c(c3C2=O)C2=NC3(CCN(CC(C)C)CC3)NC2=C(NC(=O)C(C)=CC=CC(C)C(O)C(C)C(O)C(C)C(OC(=O)c2cncnc2)C1C)C4=O` (centres unmarked) is recorded as 2.69e-05 s⁻¹ (CD-1 mouse female, plasma; intravenous, 5 mg/kg).
For `COc1ccc2c(c1)C(C)(C)C(/C=C/C1=C(Oc3ccc(C(=O)NCCCCOc4cc(CN(Cc5ccccn5)Cc5ccccn5)cc(CN(Cc5ccccn5)Cc5ccccn5)c4)cc3)C(=C/C=C3/N(CCCCS(=O)(=O)[O-])c4ccc(OC)cc4C3(C)C)CCC1)=[N+]2CCCCS(=O)(=O)[O-].O=[N+]([O-])[O-].O=[N+]([O-])[O-].[99Tc+].[C-]#[O+].[C-]#[O+].[C-]#[O+].[Zn+2]`, the tracer uptake was 0.02 %ID/g (mouse, brain; 12 h).
`C=C(NC(=O)c1csc(-c2nc3c(cc2O)-c2nc(cs2)C(=O)NC(C(C)O)C(=O)NC(=C(C)OC)c2nc(cs2)C(=O)NC2c4nc(cs4)C(=O)NC(COC(=O)c4c5c6c(cccc6n4O)COC(=O)C(OC4CC(C)(O)C(N(C)C)C(C)O4)C2OC5)c2nc-3cs2)n1)C(N)=O` (centres unmarked): “apparent clearance CL/F” 66.9 mL/min/kg (Sprague-Dawley rats, male, plasma; intravenous infusion, 6 mg/kg, day 1, multiple dosing).
`CCCC[C@H](OC(C)=O)c1ccccc1C(=O)O` gave an MRT(0-last) of 1.8 ± 0.2 h (beagle dog, both sexes, whole blood; intravenous, 1.5 mg/kg, single dose).
`O=C1NC2(CC2)COc2ncc(F)cc2[C@H]2COCCN2c2ccn3ncc1c3n2` has a micronucleus rate of 0.65 ± 0.29 ‰ (bone marrow micronucleus test; NIH mice, female; oral, 60 mg/kg/day, 3 days).
For `CNC(=O)C1CCCN(C(=O)C2CC3CCC2N3C(=O)[C@@H]2C[C@@H](O)CN2C(=O)NCc2cccc(Cl)c2F)C1` (mixture of isomers), the AUC(0-t) was 694 ng·h/mL (rat, Sprague-Dawley; iv, 2.5 mg/kg).
`Cc1ncsc1-c1ccc(CNC(=O)[C@@H]2C[C@@H](O)CN2C(=O)[C@@H](NC(=O)COCC(C)(COCCOCCOCCNC(=O)C[C@@H]2N=C(c3ccc(Cl)cc3)c3c(sc(C)c3C)-n3c(C)nnc32)COCCOCCOCCNC(=O)C[C@@H]2N=C(c3ccc(Cl)cc3)c3c(sc(C)c3C)-n3c(C)nnc32)C(C)(C)C)cc1` has a concentration of 3830 ng/mL (male C57BL/6 mouse, plasma; subcutaneous, 5 mg/kg, 4 h, single dose).
For `CCCCN1C(=O)c2cccc3c(NCCCCN4CCOCC4)ccc(c23)C1=O`, the fluorescence lifetime was 10 ns (acetonitrile).
`CN(Cc1ccccc1)C(=O)CN1CCN(CC(=O)N(C)Cc2ccccc2)CCN(Cc2cccc(C(=O)[O-])n2)CC1.[44Sc+3]` has a tracer uptake of 0.68 %ID/g (mouse, heart; intravenous, 1 h).
With `O=C(NCC1OC2CCC=CCCC2O1)c1ccc([18F])nc1` (centres unmarked) the tissue uptake was 0.4 ± 0.03 %ID/g (healthy female BALB/c nude mice, blood; intravenous, 7.4 MBq per mouse, 120 min).
With `CC(C)(O)c1ccc(N2Cc3c(ccnc3-c3ccc(F)cc3OCC(F)(F)F)C2=O)cc1` the concentration was 428 ng/mL (male C57BL/6 mouse, plasma; oral, 1 mg/kg, 6 h).
For `CN(Cc1ccccc1)C(=O)CN1CCN(CC(=O)[O-])CCN(Cc2cccc(C(=O)[O-])n2)CC1.[18F-].[Sc+3]`, the tracer uptake was 0.03 %ID/g (mouse, brain; intravenous, 1 h).
For `C=C[C@]1(C)C[C@@H](OC(=O)CSc2ccc(NC(=O)c3ccco3)cc2)[C@]2(C)[C@H](C)CC[C@]3(CCC(=O)[C@H]32)[C@@H](C)[C@@H]1O`, the plasma concentration was 46.4 ng/mL and 75.8 ng/mL and 108 ng/mL and 54.2 ng/mL and 43.2 ng/mL and 78.8 ng/mL and 23 ng/mL and 85.7 ng/mL (Mycoplasma gallisepticum-infected chickens, plasma; intramuscular, 40 mg/kg, 8 h).
The concentration of `O=C1CCC(N2Cc3cc(C(=O)O)c(F)cc3C2=O)C(=O)N1` (centres unmarked) is reported as 379 ng/mL (male CD-1 mouse, plasma; intravenous, 1 mg/kg, 15 min).

Repeated from above:
With `N#C[C@@H]1CCCN1C(=O)CNC(=O)c1ccnc2ccc(OCCCN3CCN(C(=O)CCc4ccc(O)c(CN5CCN6CC(=O)[O][Al-]([18F])([O]C(=O)C5)[O]c5ccc(CCC(=O)N7CCN(CCCOc8ccc9nccc(C(=O)NCC(=O)N%10CCC[C@H]%10C#N)c9c8)CC7)cc5C6)c4)CC3)cc12` (some centres unmarked) the tumour-to-organ ratio was 10.8 ± 1.34 (BALB/c nude mice, U-87 MG tumour; 120 min post-injection; relative to: tumour over liver).
Under “elimination rate constant”, `COC1C=COC2(C)Oc3c(C)c(O)c4c(c3C2=O)C2=NC3(CCN(CC(C)C)CC3)NC2=C(NC(=O)C(C)=CC=CC(C)C(O)C(C)C(O)C(C)C(OC(=O)c2cncnc2)C1C)C4=O` (centres unmarked) is recorded as 2.69e-05 s⁻¹ (CD-1 mouse female, plasma; intravenous, 5 mg/kg).
For `COc1ccc2c(c1)C(C)(C)C(/C=C/C1=C(Oc3ccc(C(=O)NCCCCOc4cc(CN(Cc5ccccn5)Cc5ccccn5)cc(CN(Cc5ccccn5)Cc5ccccn5)c4)cc3)C(=C/C=C3/N(CCCCS(=O)(=O)[O-])c4ccc(OC)cc4C3(C)C)CCC1)=[N+]2CCCCS(=O)(=O)[O-].O=[N+]([O-])[O-].O=[N+]([O-])[O-].[99Tc+].[C-]#[O+].[C-]#[O+].[C-]#[O+].[Zn+2]`, the tracer uptake was 0.02 %ID/g (mouse, brain; 12 h).
`C=C(NC(=O)c1csc(-c2nc3c(cc2O)-c2nc(cs2)C(=O)NC(C(C)O)C(=O)NC(=C(C)OC)c2nc(cs2)C(=O)NC2c4nc(cs4)C(=O)NC(COC(=O)c4c5c6c(cccc6n4O)COC(=O)C(OC4CC(C)(O)C(N(C)C)C(C)O4)C2OC5)c2nc-3cs2)n1)C(N)=O` (centres unmarked): “apparent clearance CL/F” 66.9 mL/min/kg (Sprague-Dawley rats, male, plasma; intravenous infusion, 6 mg/kg, day 1, multiple dosing).
